Results pooled from the literature.
Every numbered part comes from another study and shows a few of its results, in no order. Substitutions count along the parent as printed.

Series 1 — target: CCND1, cyclin fold, Cln2 fusion (human); method: yeast growth competition, sequencing; sample: yeast; setting: weak parent motif; baseline: not given; direction: higher = stronger binding; quantity: normalised enrichment score
Parent: MASTL docking peptide (human); PMIAKNLMCELDE
PMIAKNLACELDE [M8A]: 0.193
PMIAKNLQCELDE [M8Q]: 0.283
PYIAKNLMCELDE [M2Y]: 0.453
PMIKKNLMCELDE [A4K]: 0.393
PMIAVNLMCELDE [K5V]: 0.141
PMIAKNLMCTLDE [E10T]: -0.237
PMIAKNLMMELDE [C9M]: -0.106
PMIAKNLMCEMDE [L11M]: -0.516
PMIAKNLMCWLDE [E10W]: 0.124
PMIAKYLMCELDE [N6Y]: 0.0272
PMIANNLMCELDE [K5N]: 0.239
PMIAKKLMCELDE [N6K]: 0.392
PEIAKNLMCELDE [M2E]: 0.353
PMRAKNLMCELDE [I3R]: -0.0816
PMIAKNLMCELQE [D12Q]: 0.258
PMIAKNLMIELDE [C9I]: 0.114
PMIAKNKMCELDE [L7K]: 0.245
PMIALNLMCELDE [K5L]: 0.695
PNIAKNLMCELDE [M2N]: 0.0606
PMIAKNLMCHLDE [E10H]: 0.022
PMIAKNLMCEQDE [L11Q]: 0.248
PMIFKNLMCELDE [A4F]: 0.479
PMIHKNLMCELDE [A4H]: -0.0392
PKIAKNLMCELDE [M2K]: 0.302
PMIAKNLMCEWDE [L11W]: 0.475

Series 2 — method: DHFR PCA, deep sequencing; sample: yeast; together with: (+)-ABA 0 µM; baseline: wild-type fitted maximum; direction: higher = stronger binding; quantity: relative binding score
Target: ABI1, truncated, D143A, DHFR fusion (Arabidopsis thaliana)
Setting: methotrexate growth selection, single substitutions
Parent: PYL1, truncated, DHFR fusion (Arabidopsis thaliana); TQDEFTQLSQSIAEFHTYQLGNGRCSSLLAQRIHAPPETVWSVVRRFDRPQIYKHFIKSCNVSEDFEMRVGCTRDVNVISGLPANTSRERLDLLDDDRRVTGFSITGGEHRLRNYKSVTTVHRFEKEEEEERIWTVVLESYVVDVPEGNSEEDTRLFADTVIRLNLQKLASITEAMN; partner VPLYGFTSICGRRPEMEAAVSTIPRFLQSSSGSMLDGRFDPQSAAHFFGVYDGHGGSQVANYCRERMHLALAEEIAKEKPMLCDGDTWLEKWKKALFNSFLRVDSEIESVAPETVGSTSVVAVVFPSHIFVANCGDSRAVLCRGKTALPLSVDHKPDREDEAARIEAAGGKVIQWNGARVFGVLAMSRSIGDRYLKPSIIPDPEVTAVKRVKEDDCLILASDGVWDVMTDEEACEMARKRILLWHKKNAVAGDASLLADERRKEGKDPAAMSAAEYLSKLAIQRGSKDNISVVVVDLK
S150I: -12%
F56N: -1.38%
D97Y: 1.87%
V121Y: -7.28%
K168G: -10.8%
E4M: 19.5%
S150Y: -5.82%
D48L: -5.12%
D159T: -10.9%
R155I: -1.83%
L138F: 5.12%
F124T: -2.58%
N61Y: 24.9%
T17F: -2.36%

Series 3 — method: protein binding microarray; molecule type: double-stranded DNA, one strand shown; sample: in vitro; tested at: not given; baseline: not given; direction: higher = stronger binding; quantity: E-score
Target: Histone acetyltransferase KAT6A, winged helix 2, GST fusion (KAT6A, Homo sapiens, UniProt Q92794, residues 85-181)
Setting: 8-mer, flanks averaged, mean of 2 arrays, mostly near background
Residues (chain): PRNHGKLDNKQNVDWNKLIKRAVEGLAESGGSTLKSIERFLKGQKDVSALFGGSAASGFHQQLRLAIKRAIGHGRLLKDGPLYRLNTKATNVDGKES
AGATAAAA: 0.144
GACTCAGA: -0.0939
CACCATGC: 0.111
CAGCTCGG: 0.153
TATCTGCA: -0.0563
ACAATATC: 0.00826
AGTTATAG: -0.133
ATTCAAGA: 0.0208
GATCCGCC: 0.182
ACAACACT: 0.0494
CGCATTAA: 0.0983
AAGGATAG: -0.133
GTTTAATA: 0.0344
CCTGTCCA: -0.275
ATGTTTAG: -0.024
CGCATACC: -0.0372
CTACAAAA: 0.149
CCGATACA: -0.0695
TCTTGCAA: 0.159
ATTTCCGC: 0.0997

Series 4 — method: RNA Bind-n-Seq; molecule type: RNA; sample: in vitro; tested at: 200 nM; setting: whole 134-nt RNA, ends assumed; together with: 150 mM LiCl; baseline: input library; direction: higher = stronger binding; quantity: log2 enrichment; library: 7-deaza-guanosine replaces G
Target: Fragile X messenger ribonucleoprotein 1, C-terminal low-complexity region (Fmr1, Mus musculus, UniProt P35922)
All sequences stand within: GGGAGUUCUACAGUCCGACGAUC … UGGAAUUCUCGGGUGUCAAGG
UUUCCAAGAAGUGCACUGAAAAUGACAUCCGAGUCAUGUUCUCUUCGUUUGGACAGAUUGAAGAAUGCCGGAUAUUGCGGGGACCUGAUG: -1.28
UGGCCCUGGUGGCAUGCGGGGAGGAAGAGGUGGCCUCAUGGAUCGUGGUGGUCCCGGUGGAAUGUUCAGAGGUGGCCGUGCUGGAGACAG: -0.848
UGGCCCUGGUGGCAUGCGGGGAGGAAGAGGUGGCCUCAUGGAUCGUGGUGGUCCCCGUGGAAUGUUCAGAGGUGGCCGUGGUGGAGACAG: -0.238
GCAGGAAGUUAAAACAAAUGGAAAUGCUUCGGAUAGUGGCAGGGGUGGGGGUUGCUAAGGAAAGGGUGGGAUGGGAGUGGGUAAAGAGUU: 1.4
CCUGUGCUACACAUCGUAUGUACCGAAUCGGGUUUUUUGGGGUUUUUUGGGUUUUUUGGGGAAAGUAUUAUGUUACGCCGUUCGGAUCUG: -0.892
UCAAGUCCUGUGCUACACAUCGUAUGUACCGAAUCGGGUGGGUUUGGGAAAGGGAAAGUAUUAUGUUACGCCGUUCGGAUCUGCACUUCC: -0.932
CCUGUGCUACACAUCGUAUGUACCGAAUCGGGCCCCCCGGGCCCCCCGGGCCCCCCGGGGAAAGUAUUAUGUUACGCCGUUCGGAUCUGC: -2.49
UUGUCUUCUGAGAUGUUGGGCCCCUCUUGGGAUGGAGAUGAAGCAGAAUCCACUGGUGAAAUCAUUAGACUUGGAGACACAGCACACACC: -0.291
CUGUGCUACACAUCGUAUGUACCGAAUCGGGAAAAAAGGGGAAAAAAGGGGAAAAAAGGGGAAAGUAUUAUGUUACGCCGUUCGGAUCUG: 0.956
CACAGACAACACGCACCCACACAGACACAGAGGGAAGGGGUUGGGAUGGGGACAGGGUGCACAGCAGGGCCGGGUAGGACCCCAGCCCCU: 0.294
UUACGAUUAUAUCACCCGGACACACAUCAUGCUUAAGAUUCAACUGGGAGCAUACCAGGGAUGCUCUCUAACGUAAUCAAGGGAAGGUUC: -1.42

Series 5 — method: universal PBM; molecule type: double-stranded DNA, one strand shown; sample: in vitro; tested at: 600 nM; direction: higher = stronger binding; quantity: E-score
Target: Sal-like protein 4, full length isoform A (SALL4, Homo sapiens, UniProt Q9UJQ4, residues 1-1053)
UniProt Q9UJQ4, sequence (whole entry, looked up): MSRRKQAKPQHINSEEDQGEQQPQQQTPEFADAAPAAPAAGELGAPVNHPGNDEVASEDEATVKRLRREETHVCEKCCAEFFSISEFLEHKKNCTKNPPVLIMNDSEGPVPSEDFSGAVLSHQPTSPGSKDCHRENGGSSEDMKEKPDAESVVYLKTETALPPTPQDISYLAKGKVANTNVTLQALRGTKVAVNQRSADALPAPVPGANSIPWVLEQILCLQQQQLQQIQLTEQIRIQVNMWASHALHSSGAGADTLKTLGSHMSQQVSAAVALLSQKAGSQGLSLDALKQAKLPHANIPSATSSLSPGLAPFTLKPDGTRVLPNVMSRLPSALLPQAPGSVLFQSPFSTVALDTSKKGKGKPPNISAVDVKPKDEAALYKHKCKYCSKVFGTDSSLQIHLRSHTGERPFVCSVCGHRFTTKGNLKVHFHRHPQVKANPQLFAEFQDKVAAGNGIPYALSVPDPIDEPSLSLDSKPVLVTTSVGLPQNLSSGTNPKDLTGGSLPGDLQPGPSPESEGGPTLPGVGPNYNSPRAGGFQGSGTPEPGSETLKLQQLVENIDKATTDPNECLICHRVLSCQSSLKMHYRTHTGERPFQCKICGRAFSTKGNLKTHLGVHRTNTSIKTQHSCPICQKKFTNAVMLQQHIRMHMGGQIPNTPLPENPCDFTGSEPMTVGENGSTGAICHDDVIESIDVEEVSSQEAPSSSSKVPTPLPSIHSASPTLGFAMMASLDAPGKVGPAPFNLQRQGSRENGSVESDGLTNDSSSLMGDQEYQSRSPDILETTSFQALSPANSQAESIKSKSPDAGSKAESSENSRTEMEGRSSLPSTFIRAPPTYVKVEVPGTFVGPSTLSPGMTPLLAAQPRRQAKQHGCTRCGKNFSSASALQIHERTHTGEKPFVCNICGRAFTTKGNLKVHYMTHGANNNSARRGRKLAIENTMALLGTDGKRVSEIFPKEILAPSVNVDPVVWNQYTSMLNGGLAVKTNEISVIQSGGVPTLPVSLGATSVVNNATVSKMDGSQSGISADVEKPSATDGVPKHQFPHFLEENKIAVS
Setting: 8-mer, flanks averaged, mean of replicates
ACGATCCA: -0.0572
CGGGGACG: -0.326
GACCCCTA: -0.294
GTTCACAA: 0.201
AGACGCAG: -0.173
ATGGGATC: 0.0917
AAATTCGA: 0.188
AGACACAG: -0.142
GGGCGGGA: -0.131
TATTTGGA: 0.207
CCTTATCC: -0.195
CCGCTGTA: 0.00368
GCTGTCTA: -0.117
CTCACGGA: -0.23
CCTTAGTA: -0.008
ATACCACG: 0.0954
ACAAAAGG: -0.117
AGTAGAGA: 0.123
CTCTTCAC: -0.0206
ATGTTCGG: 0.0153
AAACCGTG: -0.215
GGCTCAAA: -0.117
CCTGGGCC: -0.33
CTTGTGCC: -0.148
TAGCACGA: -0.0435

Series 6 — method: competition protein-binding microarray; molecule type: double-stranded DNA, one strand shown; sample: in vitro; tested at: 2 µM; together with: Pho4 competitor, 0.05 µM; direction: higher = stronger binding; quantity: fluorescence intensity; all sequences stand within: … GTCTTGATTCGCTTGACGCTGCTG
Target: Centromere-binding protein 1, full length, His-tagged (CBF1, Saccharomyces cerevisiae, UniProt P17106, residues 1-351)
UniProt P17106, sequence (whole entry, looked up): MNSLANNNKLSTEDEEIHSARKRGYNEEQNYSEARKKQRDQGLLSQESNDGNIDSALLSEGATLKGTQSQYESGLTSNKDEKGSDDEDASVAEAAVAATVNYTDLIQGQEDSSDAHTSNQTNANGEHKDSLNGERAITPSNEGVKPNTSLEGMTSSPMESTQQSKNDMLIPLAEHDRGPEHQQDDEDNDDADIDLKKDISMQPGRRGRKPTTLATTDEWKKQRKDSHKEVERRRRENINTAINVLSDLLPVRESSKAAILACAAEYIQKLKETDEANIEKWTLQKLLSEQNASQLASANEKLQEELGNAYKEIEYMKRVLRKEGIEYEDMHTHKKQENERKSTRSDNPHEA
Setting: whole 60-bp probe, lowest competitor level
ATTCCTGAAGAATCCAAAGGATCTTTTAAGTATATA: 87.5 a.u.
TAGCGTCCAAGGACGCCCGTGGCCGAGGGAGCACCA: 43.8 a.u.
TGCGCAACAACTTGCACCGTGGGTGTATGTCTAGAA: 66.8 a.u.
CATACCCAACCTTGTCACAGGACTTAAGATATTTGT: 124 a.u.
CTTCTGTAAATTTGCGGGGTGGGTGGACGCGCCCCG: 78.9 a.u.
CTTTCCCGATCTTTTCACGTGGGGTTAGCACATTTG: 711 a.u.
AAATTACTAAGTTGCTACGTGGGTGACGCCGTATGA: 63.6 a.u.
AAAGCGGTAATTTGTCCTGTGGGTGCAGATATCTAT: 71.8 a.u.
AAGCTCGTTGGTTTGCACGTATCTTAGGCTTCACTA: 68.3 a.u.
AAATTACTAAGTTGAACAGTGGGTGACGCCGTATGA: 71.9 a.u.
CGGGGTTAAGTTTGCCCAGTGGGTGGCTTGCAGCAG: 45 a.u.
CTTTCCCGATCTTGTGGTGTGGGTGTAGCACATTTG: 89.9 a.u.
TGTCACTGGGTTTAGCACGGGTGTCATCAAGCTATG: 87.4 a.u.
CATACCCAACCTTGTCACAACACTTAAGATATTTGT: 102 a.u.
CGTATGGAGTTTTCAAACGTGGAACAAAGAACCCAA: 83.5 a.u.
GGTGGGGGACCTGTAGTCGTGCCGAGCGATCCGCTT: 82.4 a.u.
GTCTTGTCTCATTGTCACTACACTTTCCCCACTTCA: 102 a.u.
AGCAGCAGAGTCATCTTCGTGCTAAACAGTTGGTAC: 78.9 a.u.

Further values, each from its own experiment
PhoQ, residues 284 288 289 292 302 303 HSYLQF
fold induction (PhoP, residues 12 14 15 18 19 QWHVF (Escherichia coli, UniProt P23836); Sort-seq, item: YFP reporter; E. coli; PhoQ-PhoP variant library, together with: 10 µM Mg2+; baseline: high Mg2+ state, higher = stronger signaling): 3.91

Repeated from above (series 3):
CACCATGC: 0.111
GACTCAGA: -0.0939
CAGCTCGG: 0.153
ATTTCCGC: 0.0997
ATTCAAGA: 0.0208
AGATAAAA: 0.144
CCTGTCCA: -0.275
CGCATACC: -0.0372
TATCTGCA: -0.0563
CGCATTAA: 0.0983
TCTTGCAA: 0.159
ACAATATC: 0.00826
CTACAAAA: 0.149
CCGATACA: -0.0695
GATCCGCC: 0.182
AAGGATAG: -0.133
